Experimental data gathered from unrelated publications.
Lines come from different studies, so protocols differ. Values joined by “and” are separate records of one study, mostly repeats; a detail may differ. ± marks the error that the study gave.
GBA2: Beta-glucosidase (GBA2, Homo sapiens, UniProt Q9HCG7)
Chain of UniProt Q9HCG7 (whole entry, looked up): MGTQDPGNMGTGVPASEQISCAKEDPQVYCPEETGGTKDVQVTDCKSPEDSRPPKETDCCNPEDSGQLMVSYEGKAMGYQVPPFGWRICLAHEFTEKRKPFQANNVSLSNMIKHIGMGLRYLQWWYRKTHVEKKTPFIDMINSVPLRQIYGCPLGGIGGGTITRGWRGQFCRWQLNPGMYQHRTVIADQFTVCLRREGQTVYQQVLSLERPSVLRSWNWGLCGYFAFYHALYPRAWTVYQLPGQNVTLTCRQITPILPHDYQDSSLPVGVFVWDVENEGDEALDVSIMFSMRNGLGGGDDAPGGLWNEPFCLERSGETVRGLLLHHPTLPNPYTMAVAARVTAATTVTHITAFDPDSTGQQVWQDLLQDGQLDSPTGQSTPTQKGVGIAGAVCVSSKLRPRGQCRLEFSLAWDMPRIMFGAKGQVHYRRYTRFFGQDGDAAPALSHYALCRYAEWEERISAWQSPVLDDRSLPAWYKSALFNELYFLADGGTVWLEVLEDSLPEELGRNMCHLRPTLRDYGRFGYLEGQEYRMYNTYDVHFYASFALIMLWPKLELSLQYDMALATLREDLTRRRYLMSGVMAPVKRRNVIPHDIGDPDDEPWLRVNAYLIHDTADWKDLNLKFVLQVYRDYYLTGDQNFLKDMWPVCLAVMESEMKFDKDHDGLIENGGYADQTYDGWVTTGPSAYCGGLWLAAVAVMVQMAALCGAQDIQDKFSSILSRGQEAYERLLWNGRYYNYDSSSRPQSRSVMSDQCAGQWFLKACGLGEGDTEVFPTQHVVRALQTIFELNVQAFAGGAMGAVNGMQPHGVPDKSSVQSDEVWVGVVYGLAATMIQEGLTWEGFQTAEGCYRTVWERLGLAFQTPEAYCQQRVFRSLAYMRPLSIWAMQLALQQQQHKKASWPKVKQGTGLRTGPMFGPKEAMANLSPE
CASP3: Caspase-3 (CASP3, Homo sapiens, UniProt P42574)
Chain of UniProt P42574 (whole entry, looked up): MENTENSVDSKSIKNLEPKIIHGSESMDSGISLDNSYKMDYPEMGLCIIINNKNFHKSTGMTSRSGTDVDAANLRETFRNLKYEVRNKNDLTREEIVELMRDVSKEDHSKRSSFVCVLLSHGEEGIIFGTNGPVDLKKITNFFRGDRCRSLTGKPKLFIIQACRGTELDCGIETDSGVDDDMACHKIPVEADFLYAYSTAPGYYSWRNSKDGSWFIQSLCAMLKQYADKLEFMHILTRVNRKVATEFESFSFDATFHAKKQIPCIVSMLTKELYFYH
Chain of UniProt Q92633 (whole entry, unmodified, looked up): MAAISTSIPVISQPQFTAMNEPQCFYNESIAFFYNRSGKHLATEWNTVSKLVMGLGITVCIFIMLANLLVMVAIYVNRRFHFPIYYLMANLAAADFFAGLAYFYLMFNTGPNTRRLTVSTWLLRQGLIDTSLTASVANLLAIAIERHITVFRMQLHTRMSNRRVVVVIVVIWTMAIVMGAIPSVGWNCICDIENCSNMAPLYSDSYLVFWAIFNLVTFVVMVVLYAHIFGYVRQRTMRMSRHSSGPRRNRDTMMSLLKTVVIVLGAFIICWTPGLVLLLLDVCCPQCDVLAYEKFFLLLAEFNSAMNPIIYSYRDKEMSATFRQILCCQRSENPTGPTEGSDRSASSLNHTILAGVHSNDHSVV
Chain of UniProt Q13148 (whole entry, looked up): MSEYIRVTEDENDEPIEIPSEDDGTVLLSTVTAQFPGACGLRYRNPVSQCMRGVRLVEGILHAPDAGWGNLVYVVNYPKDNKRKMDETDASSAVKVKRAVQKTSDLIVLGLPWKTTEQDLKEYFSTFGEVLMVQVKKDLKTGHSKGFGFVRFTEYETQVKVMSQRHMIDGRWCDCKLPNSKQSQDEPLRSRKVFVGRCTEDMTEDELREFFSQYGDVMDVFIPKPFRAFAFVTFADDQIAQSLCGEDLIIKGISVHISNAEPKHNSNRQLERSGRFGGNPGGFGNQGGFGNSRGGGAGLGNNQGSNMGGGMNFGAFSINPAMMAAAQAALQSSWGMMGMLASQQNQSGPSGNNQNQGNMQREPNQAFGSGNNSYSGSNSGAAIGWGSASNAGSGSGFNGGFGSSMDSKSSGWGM
Chain of UniProt Q99497 (whole entry, looked up): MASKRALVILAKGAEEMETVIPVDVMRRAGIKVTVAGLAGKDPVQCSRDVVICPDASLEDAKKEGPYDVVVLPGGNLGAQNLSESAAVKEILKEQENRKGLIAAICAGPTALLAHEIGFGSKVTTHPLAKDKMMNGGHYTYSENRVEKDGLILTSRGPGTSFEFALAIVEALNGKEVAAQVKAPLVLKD
Chain of UniProt Q5VWZ2 (whole entry, looked up): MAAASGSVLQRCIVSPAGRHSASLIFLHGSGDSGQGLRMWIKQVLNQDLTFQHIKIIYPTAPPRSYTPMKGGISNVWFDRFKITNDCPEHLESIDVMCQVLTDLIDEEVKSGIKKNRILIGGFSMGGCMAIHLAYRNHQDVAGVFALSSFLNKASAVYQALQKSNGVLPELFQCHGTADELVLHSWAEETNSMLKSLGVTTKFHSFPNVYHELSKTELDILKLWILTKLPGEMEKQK
Chain of UniProt P04150 (whole entry, looked up): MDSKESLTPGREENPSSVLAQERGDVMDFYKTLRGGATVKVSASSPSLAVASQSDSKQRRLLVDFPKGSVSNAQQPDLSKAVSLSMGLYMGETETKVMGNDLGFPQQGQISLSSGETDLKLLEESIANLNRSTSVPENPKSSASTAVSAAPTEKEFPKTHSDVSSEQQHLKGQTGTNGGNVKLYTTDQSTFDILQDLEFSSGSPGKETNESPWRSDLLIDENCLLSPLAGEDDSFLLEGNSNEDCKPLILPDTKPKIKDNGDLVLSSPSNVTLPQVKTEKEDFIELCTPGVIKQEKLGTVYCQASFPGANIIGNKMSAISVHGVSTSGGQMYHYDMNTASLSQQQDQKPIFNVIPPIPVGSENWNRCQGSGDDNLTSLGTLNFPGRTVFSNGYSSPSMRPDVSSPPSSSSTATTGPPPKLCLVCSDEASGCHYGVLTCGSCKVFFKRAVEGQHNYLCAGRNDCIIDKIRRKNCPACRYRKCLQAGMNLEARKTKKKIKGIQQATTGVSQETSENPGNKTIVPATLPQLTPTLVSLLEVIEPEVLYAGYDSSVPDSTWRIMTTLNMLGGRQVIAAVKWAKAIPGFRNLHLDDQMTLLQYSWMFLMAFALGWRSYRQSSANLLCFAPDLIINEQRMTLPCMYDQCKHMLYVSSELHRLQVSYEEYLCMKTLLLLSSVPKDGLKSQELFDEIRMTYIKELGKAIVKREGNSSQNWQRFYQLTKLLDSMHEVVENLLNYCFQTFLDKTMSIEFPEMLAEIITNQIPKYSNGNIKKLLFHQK
Chain of UniProt O14744 (whole entry, looked up): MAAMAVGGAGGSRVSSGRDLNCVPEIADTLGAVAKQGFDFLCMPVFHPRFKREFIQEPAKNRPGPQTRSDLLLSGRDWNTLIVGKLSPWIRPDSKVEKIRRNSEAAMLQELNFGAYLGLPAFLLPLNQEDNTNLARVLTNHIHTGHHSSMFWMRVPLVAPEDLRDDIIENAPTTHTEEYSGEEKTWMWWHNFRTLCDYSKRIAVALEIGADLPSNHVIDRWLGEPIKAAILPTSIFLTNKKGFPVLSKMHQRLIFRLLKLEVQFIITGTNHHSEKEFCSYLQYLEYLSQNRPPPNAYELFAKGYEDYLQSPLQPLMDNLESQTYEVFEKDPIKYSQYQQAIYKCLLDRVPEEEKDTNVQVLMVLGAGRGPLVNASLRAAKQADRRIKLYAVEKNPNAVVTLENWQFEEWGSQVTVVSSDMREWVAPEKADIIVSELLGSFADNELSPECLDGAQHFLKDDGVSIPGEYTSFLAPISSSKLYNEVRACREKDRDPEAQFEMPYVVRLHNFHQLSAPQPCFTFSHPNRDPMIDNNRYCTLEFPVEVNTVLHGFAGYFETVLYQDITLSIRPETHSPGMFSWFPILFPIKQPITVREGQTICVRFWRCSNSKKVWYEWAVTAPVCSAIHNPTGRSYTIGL
Chain of UniProt P35368 (whole entry, looked up): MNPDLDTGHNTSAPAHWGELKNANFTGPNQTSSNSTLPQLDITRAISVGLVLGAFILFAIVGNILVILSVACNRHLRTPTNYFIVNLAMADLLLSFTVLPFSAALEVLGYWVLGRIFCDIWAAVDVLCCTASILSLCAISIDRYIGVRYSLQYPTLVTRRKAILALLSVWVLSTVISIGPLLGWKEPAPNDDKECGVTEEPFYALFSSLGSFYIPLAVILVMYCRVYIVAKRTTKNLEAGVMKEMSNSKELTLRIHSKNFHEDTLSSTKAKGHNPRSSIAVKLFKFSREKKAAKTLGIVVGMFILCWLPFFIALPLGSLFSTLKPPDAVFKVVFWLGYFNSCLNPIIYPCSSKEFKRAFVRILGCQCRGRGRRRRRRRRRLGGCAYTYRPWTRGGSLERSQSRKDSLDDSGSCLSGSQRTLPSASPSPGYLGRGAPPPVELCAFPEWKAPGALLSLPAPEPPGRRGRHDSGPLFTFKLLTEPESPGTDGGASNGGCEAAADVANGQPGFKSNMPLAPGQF
Chain of UniProt Q13596 (whole entry, looked up): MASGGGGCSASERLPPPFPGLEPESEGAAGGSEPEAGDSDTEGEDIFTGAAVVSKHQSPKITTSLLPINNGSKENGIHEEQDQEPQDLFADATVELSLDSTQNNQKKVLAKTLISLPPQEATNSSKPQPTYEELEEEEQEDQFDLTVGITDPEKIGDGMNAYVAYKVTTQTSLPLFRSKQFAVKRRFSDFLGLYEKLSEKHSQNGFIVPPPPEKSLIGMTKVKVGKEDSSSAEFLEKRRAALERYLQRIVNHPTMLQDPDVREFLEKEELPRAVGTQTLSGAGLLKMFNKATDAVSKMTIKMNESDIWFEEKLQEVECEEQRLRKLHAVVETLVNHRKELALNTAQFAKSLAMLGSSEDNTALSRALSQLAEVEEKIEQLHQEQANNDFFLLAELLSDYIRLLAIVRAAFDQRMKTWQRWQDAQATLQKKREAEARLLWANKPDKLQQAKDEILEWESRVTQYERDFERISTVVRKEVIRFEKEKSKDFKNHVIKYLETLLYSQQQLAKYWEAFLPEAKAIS

SMILES | target | test | test system | setting | how to read | quantity | result
N#CN1CC[C@H](C(=O)Nc2nc3c(s2)CN(C(=O)Cn2cc(CNC(=O)CCCC[C@@H]4SC[C@@H]5NC(=O)N[C@@H]54)nn2)CC3)C1 | PARK7 (Homo sapiens, UniProt Q99497) | probe binding, affinity probe, neutravidin pull-down LC-MS/MS | HEK293T, cell lysate | 5 µM, 1 h, mean of three replicates, unit not given | higher = more pulled down | iBAQ abundance | 4.4e+09
O=C(Nc1ccc(C(=O)Nc2ccc3c(O)cc(S(=O)(=O)O)cc3c2)cc1)c1ccccc1 | TREX1 (Homo sapiens, UniProt Q9NSU2) | ssDNA binding, inhibitor, fluorescence anisotropy |  | added: 5 nM FAM-labelled ssDNA, 20 nM enzyme |  | Hill slope | 2.12 ± 0.176
COc1ncc2nc(C)n(Cc3ncc(S(N)(=O)=O)cc3F)c2c1-c1ccccc1 | NR3C1 (Homo sapiens, UniProt P04150) | agonist, cell-based |  | 10 µM |  | activation | -0.126%
CC(C)=CCOCCCCCN1C[C@H](O)[C@@H](O)[C@H](O)[C@@H]1CO | GBA2 | inhibitor, 4MU-β-D-glucopyranoside | HEK293T homogenates overexpressing GBA2 |  | reference: GBA1 IC50 over GBA2 IC50 | selectivity ratio | 17200
CC(=O)N[C@@H](CO)C(=O)N[C@H](C(=O)N1CCC[C@H]1C(=O)N[C@@H](CC(=O)O)C(=O)COC(=O)c1c(C)cccc1C)C(C)(C)C | CASP3 | enzyme activity, inhibitor |  |  |  | kinact/KI | 229000 M⁻¹ s⁻¹
CCCCCC(O)/C=C/C=O (stereo not shown) | DYNC1LI1 (Homo sapiens, UniProt Q9Y6G9) | competitive isoTOP-ABPP | Ramos soluble proteome | 100 µM, 60 min, added: iodoacetamide probe | reference: DMSO over compound-treated, higher = stronger cysteine blockade | isoTOP-ABPP competition ratio | 2.1
CC[C@H](C)[C@H](NC(=O)N1CC(=O)Nc2ccccc21)C(=O)O | B4GALT1 (Homo sapiens, UniProt P15291) | enzyme activity, inhibitor, UDP-Glo |  | 100 µM | lower means stronger inhibition | luminescence | 84500 a.u.
CCCCCCCCCCCCCCCC(=O)N[C@@H](CCCNC(=N)N)C(=O)NCCCC[C@H](NC(=O)[C@H](CCC(N)=O)NC(=O)[C@H](Cc1c[nH]cn1)NC(=O)[C@H](CCCC)NC(=O)[C@H](CC(C)C)NC(=O)[C@H](CCC(N)=O)NC(=O)[C@@H](NC(=O)[C@H](CCC(=O)O)NC(=O)C(C)(C)NC(=O)[C@@H](NC(=O)C1(N)CCCC1)C(C)C)[C@@H](C)CC)C(N)=O | PTH1R (Homo sapiens, UniProt Q03431) | cAMP response, agonist, GloSensor cAMP | GP-2.3 | washout phase |  | Emax | 156 ± 9%
COc1ccc(-c2ccc(-c3ccc(C(=N)N)cc3)s2)cc1 | PRMT5 (Homo sapiens, UniProt O14744) | enzyme activity, inhibitor, radiometric |  | 20 µM |  | remaining activity | 22.8%
OC[C@H]1[C@@H](O)[C@H](O)[C@@H](O)CN1CCCCOCCC12CC3CC(CC(C3)C1)C2 | GBA2 | inhibitor, 4MU-β-D-glucopyranoside | HEK293T homogenates overexpressing GBA2 |  | reference: GCS IC50 over GBA2 IC50 | selectivity ratio | 2310
CCN(CC)C(CO)c1cccc2c(C)c(C)oc12 (stereo not shown) | LPAR1 (Homo sapiens, UniProt Q92633, W271F) | G-protein dissociation, agonist, NanoBiT | HEK-293T | 1 µM, W271F mutant | reference: baseline luminescence | fold change | 0.779 and 0.703 and 0.429 and 0.803 and 0.699 and 0.654
CC(=O)N[C@@H](CCC(N)=O)C(=O)N[C@@H](CC(C)C)C(=O)N[C@@H](CCCC(=O)O)C(=O)N1CCC[C@H]1C(=O)N[C@@H](CC(=O)O)C(=O)COC(=O)c1c(C)cccc1C | CASP3 | enzyme activity, inhibitor |  |  |  | kinact/KI | 421000 M⁻¹ s⁻¹
C[C@@H](OCCCCCN1C[C@H](O)[C@@H](O)[C@H](O)[C@H]1CO)c1ccc(-c2ccccc2)cc1 | GBA2 | inhibitor, 4MU-β-D-glucopyranoside | HEK293T homogenates overexpressing GBA2 |  | reference: GCS IC50 over GBA2 IC50 | selectivity ratio | 20
CC(=O)N[C@@H](CO)C(=O)N[C@H](C(=O)N[C@@H](CCC(=O)O)C(=O)N[C@H](C(=O)N[C@@H](CC(=O)O)C(=O)COC(=O)c1c(C)cccc1C)C(C)C)C(C)(C)C | CASP3 | enzyme activity, inhibitor |  |  |  | kinact/KI | 714000 M⁻¹ s⁻¹
C=CC(=O)N1CCCC(n2c(=O)c3ncccc3n(Cc3ccc(Oc4ccccc4)cc3)c2=O)C1 (stereo not shown) | Sorting nexin-1 (SNX1, Homo sapiens, UniProt Q13596) | thermal proteome profiling | cell proteome | unit not given | reference: vehicle | melting temperature shift | -5.8
OC[C@H]1[C@@H](O)[C@H](O)[C@@H](O)CN1CCCCCOCC1CCCCC1 | GBA2 | inhibitor, 4MU-β-D-glucopyranoside | HEK293T homogenates overexpressing GBA2 |  | reference: GCS IC50 over GBA2 IC50 | selectivity ratio | 12
CCc1ccc2nc(-c3cnnn3C)[nH]c2c1 | BAZ2B (Homo sapiens, UniProt Q9UIF8) | acetylated peptide binding, inhibitor, AlphaScreen competition |  | 500 µM |  | residual binding | 4%
Nc1nc(SCc2ccc(Cl)cc2)nn1S(=O)(=O)c1ccc(Cl)cc1 | LYPLAL1 (Homo sapiens, UniProt Q5VWZ2) | enzyme activity, activator, gel-based ABPP | purified protein | concentration not given, added: FP-rhodamine | reference: DMSO | probe labeling increase | 2.3 fold
OC[C@@H]1[C@@H](O)[C@H](O)[C@@H](O)CN1CCCCCOCc1ccc(-c2ccccc2)c(F)c1 | GBA2 | inhibitor, 4MU-β-D-glucopyranoside | HEK293T homogenates overexpressing GBA2 |  | reference: GBA1 IC50 over GBA2 IC50 | selectivity ratio | 2500
O=c1cc(Cn2ccnc2)c2cc3c(cc2o1)CCC3 | ADRA1B (Homo sapiens, UniProt P35368) | intracellular Ca2+ mobilization, agonist | COS-7 | 500 µM | reference: 3 µM ionomycin | agonist activity | 19.9 ± 2.78%
O=C1c2sc(-c3ccc(N4CCC(CO)CC4)nc3F)nc2CCN1c1cccnc1 | TAR DNA-binding protein 43, aggregated (TARDBP, Homo sapiens, UniProt Q13148) | radioligand binding | human, FTLD-TDP type B extract | added: radioligand 37.19 nM |  | specific binding | 5.2 nM and 7.09 nM
CC(C)[C@@H]1NC(=O)[C@H](Cc2ccccc2)NC(=O)CSC[C@@H](C(N)=O)NC(=O)[C@H](CCC(=O)O)NC(=O)[C@H](CO)NC(=O)[C@H](Cc2c[nH]c3cccc(Cl)c23)NC(=O)[C@H](C2CCCCC2)NC(=O)[C@H](C(C)C)NC(=O)[C@H](Cc2ccc(O)cc2)NC(=O)[C@H](CC(=O)O)NC(=O)[C@H](Cc2c[nH]c3ccccc23)NC(=O)[C@H](Cc2ccc(N)nc2)NC(=O)[C@H](Cc2c[nH]c3ccc(Cl)cc23)NC(=O)[C@H](CCC(=O)O)NC1=O | Interleukin-1 receptor-like 2 (IL1RL2, Homo sapiens, UniProt Q9HB29) | reporter gene (SEAP), inhibitor, HEK-Blue IL-36R reporter | HEK-Blue IL-36R cells | 0.14 µM, 6 h, added: IL-36γ 1 ng/mL |  | remaining activity | 91.8%
N#Cc1ccccc1-c1ccc(COCCCCCN2C[C@H](O)[C@@H](O)[C@H](O)[C@H]2CO)cc1 | GBA2 | inhibitor, 4MU-β-D-glucopyranoside | HEK293T homogenates overexpressing GBA2 |  | reference: GCS IC50 over GBA2 IC50 | selectivity ratio | 30
C=CC(=O)N1C[C@H](C)N(c2nc(OC[C@@]34CCCN3C[C@H](F)C4)nc3c(F)c(-c4ccc(F)c5sc(N)c(C#N)c45)c(C(F)(F)F)cc23)C[C@H]1C | GTPase KRas, GppNHp-bound (KRAS, Homo sapiens, UniProt P01116, A146T) | binding |  |  |  | dissociation rate constant | 0.186 ± 0.0083 s⁻¹
CCCCCCCN1C[C@H](O)[C@@H](O)[C@H](O)[C@@H]1CO | GBA2 | inhibitor, 4MU-β-D-glucopyranoside | HEK293T homogenates overexpressing GBA2 |  | reference: GCS IC50 over GBA2 IC50 | selectivity ratio | 100
COc1ccc(Cn2nccc2NC(=O)C(C(F)(F)F)C(F)(F)F)cc1 | Chymotrypsinogen A (Bos taurus, UniProt P00766) | enzyme activity, inhibitor |  |  |  | IC50 | inactive
OC[C@@H]1[C@@H](O)[C@H](O)[C@@H](O)CN1CCCCCOCCC12CC3CC(CC(C3)C1)C2 | GBA2 | inhibitor, 4MU-β-D-glucopyranoside | HEK293T homogenates overexpressing GBA2 |  | reference: GCS IC50 over GBA2 IC50 | selectivity ratio | 1000
CNC(=O)C[C@H](Cc1ccc(C#N)cc1)NC(=O)c1cc(-c2ccc(CN[C@H](C)c3ccc(C)cc3)o2)ccc1Cl | ATPase family AAA domain-containing protein 2, bromodomain (ATAD2, Homo sapiens, UniProt Q6PL18) | thermal shift |  | 25 µM, untagged protein |  | ΔTm | 0 °C

Repeated from above:
SMILES | target | test | test system | setting | how to read | quantity | result
C=CC(=O)N1CCCC(n2c(=O)c3ncccc3n(Cc3ccc(Oc4ccccc4)cc3)c2=O)C1 (stereo not shown) | Sorting nexin-1 (SNX1, Homo sapiens, UniProt Q13596) | thermal proteome profiling | cell proteome | unit not given | reference: vehicle | melting temperature shift | -5.8
OC[C@H]1[C@@H](O)[C@H](O)[C@@H](O)CN1CCCCCOCC1CCCCC1 | GBA2 | inhibitor, 4MU-β-D-glucopyranoside | HEK293T homogenates overexpressing GBA2 |  | reference: GCS IC50 over GBA2 IC50 | selectivity ratio | 12
